Published values collected from several papers.
Lines come from different studies, so protocols differ. ± gives the spread as reported.
Cell line: MDA-MB-231

| Structure (SMILES) | read-out | technique | time | notes | IC50 |
| --- | --- | --- | --- | --- | --- |
| CC(C)c1cccc(C(C)C)c1[N+]#[C][Pd-]([Cl])([Cl])=[C](Nc1cccc(CN[C](Nc2c(C(C)C)cccc2C(C)C)=[Au][Cl])c1)Nc1c(C(C)C)cccc1C(C)C | cell growth or viability |  |  |  | 6 µM |
| Cc1cc(C#N)cc(C)c1Oc1cc(Nc2ccc(C#N)cc2)nc2cnccc12 |  |  | 48 h |  | > 128 µM |
| Nc1cccc[n+]1CCCCC[n+]1ccccc1N | cell growth or viability | MTT | 72 h |  | 35.9 µM |
| CCn1cc[n+](CC)[c]1[Au-]([Cl])([Cl])[Cl] | cell growth or viability | crystal violet | 96 h |  | 10.6 µM |
| CC(C)=CCc1c2c(c(O)c3c(=O)c(-c4ccc(O)cc4O)coc13)C=CC(C)(C)O2 | cell growth or viability | MTT | 24 h |  | 15.3 µM |
| Cc1cc(C)c([N+]#[C][Pt-]([Cl])([Cl])=[C](Nc2cccc(CN[C](NC(C)(C)C)=[Au][Cl])c2)Nc2c(C)cc(C)cc2C)c(C)c1 | cell growth or viability |  |  |  | > 100 µM |
| Cc1cc(C#N)cc(C)c1Oc1cc(Nc2ccc(C#N)cn2)nc2cnccc12 |  |  | 48 h |  | > 127 µM |
| C=C[CH2][Pd-]([Cl])[Cl].Cc1cc(C)c(-n2c[n+](-c3c(C)cc(C)cc3C)c3c2-c2cccc4cccc-3c24)c(C)c1 | cell growth or viability | MTT | 72 h |  | 7 µM |
| Oc1ccccc1-c1nn(-c2ccccn2)[n+](-c2ccccc2)n1 | cell growth or viability | resazurin | 72 h |  | 17 µM |
| C=C1C(=O)OC2CC3=C[C@@H](C/C(C)=C/C(OC(=O)Cc4cccc5ccccc45)[C@H]12)OC3=O (some centres unmarked) | cell growth or viability | MTT |  |  | 3.8 µM |
| C1=CCCC=CCC1.F[P-](F)(F)(F)(F)F.[Pt+][c]1ccccc1P(=Nc1ccccc1)(c1ccccc1)c1ccccc1 | cell growth or viability | MTT | 24 h |  | 0.84 µM |
| CC(C)c1cccc(C(C)C)c1[N+]#[C][Pd-]([Cl])([Cl])=[C](Nc1ccc(CN[C](NC(C)(C)C)=[Au][Cl])cc1)Nc1c(C(C)C)cccc1C(C)C | cell growth or viability |  |  |  | > 100 µM |
| COC(=O)[C@@H]1CCCN1C(=O)[C@H](C)N(C)C(=O)OC(C)(C)C | cell growth or viability | SRB |  |  | 11 µM |
| O=c1oc2cc(O)cc3c2c2c(cc(O)cc12)CC3 | cell growth or viability | MTT | 48 h |  | 26.3 µM |
| C#C[C@@]1(O)CCC2C3CCc4cc(Oc5no[n+]([O-])c5S(=O)(=O)c5ccccc5)ccc4C3CCC21C (some centres unmarked) | cell growth or viability | MTT | 48 h |  | 0.0132 µM |
| CCOc1cc(/C=C/C(=O)/C=C/c2cn(-c3ccccc3)nc2C(=O)O)ccc1O | cell growth |  | 72 h |  | 22.6 ± 2.17 µM |
| CN[C@@H](C)C(=O)N[C@H]1CN(C(=O)Cc2ccccc2)CC[C@H]2CC[C@@H](C(=O)NCc3ccc(C(F)(F)F)cc3)N2C1=O | cell growth or viability |  | 96 h |  | 0.307 µM |
| COc1cccc(CNC[C@@](O)(COCc2ccccc2)[C@@H]2CC[C@@H](C)C[C@H]2OCc2ccccc2)c1 | cell growth or viability | MTT | 72 h |  | 16.8 µM |
| O=C(CNc1nc(O)nc(NNC(=O)c2ccc(Nc3nc(Nc4ccc(C(=O)NNc5nc(O)nc(NCC(=O)NO)n5)cc4)nc(Nc4ccc(C(=O)NNc5nc(O)nc(NCC(=O)NO)n5)cc4)n3)cc2)n1)NO | cell growth or viability | MTT | 72 h |  | 0.0729 µM |
| O=C(Nc1ccc([N+](=O)[O-])cc1)C(c1ccc(C(F)(F)F)cc1)N(Cc1ccccc1)C(=O)c1ccc2ccccc2n1 (centres unmarked) |  |  | 48 h |  | 40.2 ± 3.1 µM |

| Structure (SMILES) | read-out | technique | time | notes | IC50 |
| --- | --- | --- | --- | --- | --- |
| CC(C)=CCC1=C(O)c2c(occ(-c3ccc(O)cc3)c2=O)C(CC=C(C)C)(CC=C(C)C)C1=O | cell growth or viability | MTT | 24 h |  | 15.4 µM |
| Cc1ccc(C(C)C)cc1.[Cl-].[Cl-].[Ru+2].c1ccc(P(=Nc2cccc3cccnc23)(c2ccccc2)c2ccccc2)cc1 | cell growth or viability | MTT | 24 h |  | 16.2 µM |
| CC(C)(C)N=[C](NCc1cccc(N)c1)[AuH][Cl] | cell growth or viability |  |  |  | > 100 µM |
| CCCCCCCCCCCCCCCOC(=O)/C=C/c1ccc(OC)cc1 | cell viability | MTT | 48 h | serum-free medium | 58.2 ± 4.7 µg/mL |
| Cc1cc(C)c(-n2c3c([n+](-c4c(C)cc(C)cc4C)[c]2[Au-][Cl])-c2cccc4cccc-3c24)c(C)c1 | cell growth or viability | MTT | 72 h |  | 19 µM |
| CN[C@@H](C)C(=O)N[C@H]1CN(C(=O)Cc2ccccc2)CC[C@H]2CC[C@@H](C(=O)NCc3ccc(OC)cc3)N2C1=O | cell growth or viability |  | 96 h |  | 0.121 µM |
| CO[C@@H]1C(=O)c2ccc(O)cc2O[C@@H]1c1ccc(O)c(O)c1 (relative stereo) | cell growth or viability | MTT | 72 h |  | 193 µM |
| Cc1ccc(C(C)C)cc1.O=C(N=P(c1ccccc1)(c1ccccc1)c1ccccc1)c1ccccn1.[Cl-].[Cl][Ru+] | cell growth or viability | resazurin |  |  | 3.7 µM |
| Cc1c(Cl)cccc1Nc1ccccc1C(=O)[O][Re-2]1(=[C]=O)(=[C]=O)(=[C]=O)[n+]2ccc(-c3ccccc3)c3ccc4c(-c5ccccc5)cc[n+]1c4c32 | cell growth or viability | resazurin | 72 h |  | 6.08 µM |
| COc1cc(OC)c(-c2coc3c4c(c(OC)cc3c2=O)OC(C)(C)C=C4)cc1OC | cell growth or viability | MTT | 72 h |  | 11.1 µM |
| Cc1cc(-c2ccccc2)c2ccc3c(-c4ccccc4)cc(C)[n+]4c3c2[n+]1[Re-2]4(=[C]=O)(=[C]=O)(=[C]=O)[O]C(=O)c1ccccn1 | cell growth or viability | resazurin | 72 h |  | 1.03 µM |
| C=CCc1cc(OC)c(OC(C)=O)c(OC)c1 |  | MTT | 24 h |  | > 50 µM |
| COc1ccc(/N=N/C(=S)N2CCN(C)CC2)cc1 | cell growth or viability | resazurin | 48 h |  | 49.2 µM |
| CC(C)(C)N=[C](NCc1ccc(N)cc1)[AuH][Cl] | cell growth or viability |  |  |  | > 100 µM |
| COc1ccc(/C(=C(/CCn2cc(CN3C(=O)C4(OCCO4)c4cc(F)ccc43)nn2)c2ccccc2)c2ccccc2)cc1 | cell growth or viability | MTT |  |  | > 100 µM |
| COc1ccc(/C=C/C(=O)/C=C/c2cn(-c3ccccc3)nc2C(=O)O)c(OC)c1 | cell growth |  | 72 h |  | 19.9 ± 6.77 µM |
| CN(C)CCO/N=C1/C=C2CCC3C(CC[C@]4(C)/C(=C/c5ccccn5)CCC34)[C@@]2(C)CC1 (some centres unmarked) | cell growth or viability | MTT | 72 h |  | > 100 µM |
| CCN(CC)C1=[S+][Au-2]2([S]1)[c]1ccccc1-c1cccc[n+]12.F[P-](F)(F)(F)(F)F (centres unmarked) | cell growth or viability | MTT | 72 h |  | 1.38 µM |
| c1ccc(-c2nn(-c3ccccn3)[n+](-c3ccccc3)n2)cc1 | cell growth or viability | resazurin | 72 h |  | 16 µM |
| C[C@@H]1CC[C@@H]([C@@](O)(CNCc2ccc(F)cc2)COCc2ccccc2)[C@H](OCc2ccccc2)C1 | cell growth or viability | MTT | 72 h |  | 3.8 µM |

| Structure (SMILES) | read-out | technique | time | notes | IC50 |
| --- | --- | --- | --- | --- | --- |
| O=C(O)CNc1nc(O)nc(NNC(=O)c2ccc(Nc3nc(Nc4ccc(C(=O)NNc5nc(O)nc(NCC(=O)O)n5)cc4)nc(Nc4ccc(C(=O)NNc5nc(O)nc(NCC(=O)O)n5)cc4)n3)cc2)n1 | cell growth or viability | MTT | 72 h |  | 0.0866 µM |
| CCCC(=O)Oc1c(C)c(OC)c2c(/C=C/c3ccccc3)c(CC)c(=O)oc2c1C | cell growth or viability | SRB | 72 h |  | > 50 µM |
| CN[C@@H](C)C(=O)N[C@H]1CN(C(=O)Cc2ccccc2)CC[C@H]2CC[C@@H](C(=O)NCc3cccc(C(F)(F)F)c3)N2C1=O | cell growth or viability |  | 96 h |  | 0.224 µM |
| CCc1c(C)c2ccc(OC(C)C)c(C)c2oc1=O | cell growth or viability | MTT |  |  | > 50 µM |
| CCC(=C(c1ccc(O)cc1)c1ccc(OCCN(C)CCOCCOCCOCCOCCOCCOCCOCCOCCOCCOCCOCCN(C)CCOc2ccc(C(=C(CC)c3ccccc3)c3ccc(O)cc3)cc2)cc1)c1ccccc1 (mixture of isomers) | cell growth |  | 96 h | Z-Z:Z-E:E-E isomer mix 1:2:1 | 0.32 µM |
| CC(C)CN(CC(=O)N1CCN(CC(OCc2ccc3ccccc3c2)c2ccc(Cl)cc2Cl)CC1)CC(C)C (centres unmarked) | cell growth or viability | MTT | 24 h |  | 1.66 µM |
| C=CC(=C)CC[C@]1(C)[C@H](C)C[C@H](O)[C@@]23C(=C[C@H](OC(=O)C(C)C)C[C@@H]12)[C@@H](OC(C)=O)O[C@H]3OC(C)=O | cell growth or viability | SRB |  |  | 0.48 µM |
| Cc1cc(C)c([N+]#[C][Pd-]([Cl])([Cl])=[C](Nc2cccc(CN[C](Nc3c(C(C)C)cccc3C(C)C)=[Au][Cl])c2)Nc2c(C)cc(C)cc2C)c(C)c1 | cell growth or viability |  |  |  | 6 µM |
| CC12CCC3c4ccc(OCCCOc5no[n+]([O-])c5S(=O)(=O)c5ccccc5)cc4CCC3C1CCC2O (centres unmarked) | cell growth or viability | MTT | 48 h |  | 0.0022 µM |
| C[C@]12CC/C(=N\O)C=C1CCC1C2CC[C@]2(C)/C(=C/c3ccccn3)CCC12 (some centres unmarked) | cell growth or viability | MTT | 72 h |  | 47.3 µM |
| CCN(CC)c1ccc2c(c1)[O][Pd]([CH2]C#N)[N](c1ccccc1C)c1ncccc1N=C2 | cell growth or viability | MTT | 48 h |  | 34.6 µM |
| CC12CCC3c4ccc(Oc5no[n+]([O-])c5S(=O)(=O)c5ccccc5)cc4CCC3C1CCC2O (centres unmarked) | cell growth or viability | MTT | 48 h |  | 0.499 µM |
| COc1ccccc1CNC[C@](O)(COCc1ccccc1)[C@@H]1CC[C@@H](C)C[C@H]1OCc1ccccc1 | cell growth or viability | MTT | 72 h |  | 2.5 µM |
| COc1ccc2cc([C@H](C)C(=O)[O][Re-2]3(=[C]=O)(=[C]=O)(=[C]=O)[n+]4c(C)cc(-c5ccccc5)c5ccc6c(-c7ccccc7)cc(C)[n+]3c6c54)ccc2c1 | cell growth or viability | resazurin | 72 h |  | 6.52 µM |
| CN[C@@H](C)C(=O)N[C@H]1CN(C(=O)Cc2ccccc2)CC[C@H]2CC[C@@H](C(=O)NCc3cccc(F)c3)N2C1=O | cell growth or viability |  | 96 h |  | 0.197 µM |
| COC(=O)C1CN1S(=O)(=O)c1ccc2c(C=O)c(N(C)C)ccc2c1 (centres unmarked) | cell growth or viability | MTT | 48 h |  | 18 µM |
| O=C1C(=NN=c2[nH]ccs2)c2cc(Cl)ccc2N1CCn1ncc2c(=O)[nH]cnc21 | cell growth or viability | SRB | 72 h |  | 3.89 µM |
| CN[C@@H](C)C(=O)N[C@H]1CN(C(=O)Cc2ccccc2)CC[C@H]2CC[C@@H](C(=O)NCc3ccccc3Br)N2C1=O | cell growth or viability |  | 96 h |  | 0.667 µM |
| CCCCCCCCCCCCCCCOC(=O)/C=C/c1cccc(OC)c1 | cell viability | MTT | 48 h | serum-free medium | inactive |

For quick reference, copied from above:
| Structure (SMILES) | read-out | technique | time | notes | IC50 |
| --- | --- | --- | --- | --- | --- |
| COC(=O)C1CN1S(=O)(=O)c1ccc2c(C=O)c(N(C)C)ccc2c1 (centres unmarked) | cell growth or viability | MTT | 48 h |  | 18 µM |
| CC(C)(C)N=[C](NCc1cccc(N)c1)[AuH][Cl] | cell growth or viability |  |  |  | > 100 µM |
| O=C(O)CNc1nc(O)nc(NNC(=O)c2ccc(Nc3nc(Nc4ccc(C(=O)NNc5nc(O)nc(NCC(=O)O)n5)cc4)nc(Nc4ccc(C(=O)NNc5nc(O)nc(NCC(=O)O)n5)cc4)n3)cc2)n1 | cell growth or viability | MTT | 72 h |  | 0.0866 µM |
| O=C(Nc1ccc([N+](=O)[O-])cc1)C(c1ccc(C(F)(F)F)cc1)N(Cc1ccccc1)C(=O)c1ccc2ccccc2n1 (centres unmarked) |  |  | 48 h |  | 40.2 ± 3.1 µM |
| CN[C@@H](C)C(=O)N[C@H]1CN(C(=O)Cc2ccccc2)CC[C@H]2CC[C@@H](C(=O)NCc3ccc(C(F)(F)F)cc3)N2C1=O | cell growth or viability |  | 96 h |  | 0.307 µM |
